Measurements of several laboratories.
Compare with care: the assays were run in different laboratories. Values joined by “and” are separate records of one study, mostly repeats; a detail may differ. ± marks the error that the study gave. Values after ≈ are worked out from the molar mass of the structure shown.

| SMILES | organism | test | system | setting | scale | endpoint | value |
| --- | --- | --- | --- | --- | --- | --- | --- |
| NC(=O)c1ncn([C@@H]2O[C@H](CO)[C@@H](O)[C@H]2O)n1 | lymphocytic choriomeningitis virus | reporter gene | BHK-21 | 100 µM, minigenome, Gaussia luciferase | relative to: DMSO | reporter activity | 23.6% |
| Cc1ccc(NC(=O)c2sc3nc(-c4ccccc4)cc(C(F)(F)F)c3c2N)cc1 | Mycobacterium tuberculosis | growth inhibition | H37Rv LepB under-expressing |  |  | IC50 | > 100 µM |
| CC1(C)S[C@@H]2[C@H](NC(=O)[C@H](N)c3ccc(O)cc3)C(=O)N2[C@H]1C(=O)O | Burkholderia cepacia |  | 6349 |  |  | MIC | > 256 µg/mL |
| COc1ccc(-c2cc(C(F)(F)F)c3c(N)c(C(=O)N4CCCC4(C)C)sc3n2)cc1 | Mycobacterium tuberculosis |  | H37Rv wild type |  | relative to: HepG2 IC50 over M. tuberculosis IC90 | selectivity index | < 1 |
| OC(Cn1cncn1)(Cn1cncn1)c1ccc(F)cc1F | Saccharomyces cerevisiae | cell growth | Pdr5 deleted, empty vector | 2^-2 µg/mL |  | OD600 | 0.981 and 0.962 and 0.99 |
| C[C@H]1COc2c(N3CCN(C)CC3)c(F)cc3c(=O)c(C(=O)O)cn1c23 | Burkholderia cepacia |  | 6349 |  |  | MIC | 1 µg/mL (≈ 2.77 µM) |
| COc1ccc2cc1Oc1ccc(cc1)C[C@H]1c3cc(c(OC)cc3CCN1C)Oc1c(OC)c(OC)cc3c1[C@H](C2)N(C)CC3 | Influenza A virus | viral replication | MDCK, A/HanFang/359/95 (H3N2) | 48 h |  | IC50 | 4.49 ± 0.84 µM |
| CCOC(=O)C1=C[C@@H](OC(CC)CC)[C@H](NC(C)=O)[C@@H](N)C1 | Influenza A virus | viral replication | MDCK, A/WSN/1933 (H1N1) | 48 h |  | EC50 | 2170 ± 240 nM |
